Published values pooled from the literature.
Each line is one published result; not all experiments were run side by side.
PIK3CA H1047L: Phosphatidylinositol 4,5-bisphosphate 3-kinase catalytic subunit alpha isoform (PIK3CA, Homo sapiens, UniProt P42336, H1047L)
PIK3CA C420R: Phosphatidylinositol 4,5-bisphosphate 3-kinase catalytic subunit alpha isoform (PIK3CA, Homo sapiens, UniProt P42336, C420R)

Structure (SMILES) = CNC(=O)C1CCN(c2cc(C)c(F)cc2NC(=O)c2ccc(-c3cc(O)ccc3C)c(C)c2)CC1; target = PIK3CA H1047L; test = binding, competition with immobilised ligand; conditions = 1 µM; remaining binding = 100%
Structure (SMILES) = Nc1ncc2c(n1)-c1c([nH]c3ccc(C4=CCOCC4)cc13)CCC2; target = PIK3CA C420R; test = binding, competition with immobilised ligand; conditions = 1 µM; remaining binding = 82%
Structure (SMILES) = CNC1C[S+]2CC[S+]3CC[S+](C1)[Ru-4]321([N]=C=S)[n]2c3ccc(OC)cc3c3c4c(c5cc(F)c[n+]1c5c32)C(=O)NC4=O (centres unmarked); target = PIK3CA (Homo sapiens, UniProt P42336, Q546K); test = KinomeScan; conditions = 0.1 µM; scale = relative to: untreated; remaining binding = 97%
Structure (SMILES) = CC(C)=CC1OC(C)(C)C2C=C3C(=O)C(Cl)=CC(O)C3C3C(O)C4OC4C(=O)C132 (centres unmarked); target = PIK3CA H1047L; test = cell-free assay, competition with immobilised ligand; conditions = 10 µM; remaining binding = 69%
Structure (SMILES) = Cc1ccc(-c2c(/C=C(\C#N)C(=O)NC(C)C)n(CCCO)c3ncnc(N)c23)cc1; target = PIK3CA (Homo sapiens, UniProt P42336, E545A); test = cell-free assay, competition with immobilised ligand; conditions = 1 µM; remaining binding = 100%
Structure (SMILES) = CCN1CCN(Cc2ccc(C(=O)Nc3ccc(C)c(NCc4cnc5[nH]ccc5c4OC)c3)cc2C(F)(F)F)CC1; target = PIK3CA C420R; test = binding, competition with immobilised ligand; conditions = 1 µM; remaining binding = 68%
Structure (SMILES) = CC(=O)c1cnc(N)nc1N1CC[C@H]1c1nn2ccc(Cl)c2c(=O)n1-c1ccccc1; target = PIK3CA H1047L; test = binding, competition with immobilised ligand; conditions = 10 µM; remaining binding = 71%
Structure (SMILES) = C=CC(=O)N1CCCC(n2c(=O)c3ncccc3n(Cc3ccc(Oc4ccccc4)cc3)c2=O)C1 (centres unmarked); target = PIK3CA (Homo sapiens, UniProt P42336, M1043I); test = cell-free assay, competition with immobilised ligand; conditions = 1 µM; remaining binding = 100%
Structure (SMILES) = C=CC(=O)N1CCc2ccc(-n3c(=O)ccc4cnc5ccc(-c6cnn(C)c6)cc5c43)cc21; target = PIK3CA C420R; test = KINOMEscan; conditions = 1 µM; scale = relative to: DMSO control; remaining binding = 64%
Structure (SMILES) = COc1c(Cl)cccc1Nc1c(-c2ccncc2C#C[C@@]2(C)CCCN2C(=O)/C=C/CN(C)C)[nH]c2c1C(=O)NCC2; target = PIK3CA C420R; test = binding, competition with immobilised ligand; conditions = 3 µM; remaining binding = 86%
Structure (SMILES) = Cc1cnc2nc1Nc1cccc(c1)COC/C=C/COCc1cc(ccc1OCCN1CCOCC1)N2; target = PIK3CA C420R; test = binding; conditions = 0.1 µM; remaining binding = 83%
